{"data": "Published values pooled from the literature", "note": "A part holds a random share of what one study measured. Values joined by “and” are separate records of one study, mostly repeats; a detail may differ.", "UniProt P08922, sequence (whole entry, looked up)": "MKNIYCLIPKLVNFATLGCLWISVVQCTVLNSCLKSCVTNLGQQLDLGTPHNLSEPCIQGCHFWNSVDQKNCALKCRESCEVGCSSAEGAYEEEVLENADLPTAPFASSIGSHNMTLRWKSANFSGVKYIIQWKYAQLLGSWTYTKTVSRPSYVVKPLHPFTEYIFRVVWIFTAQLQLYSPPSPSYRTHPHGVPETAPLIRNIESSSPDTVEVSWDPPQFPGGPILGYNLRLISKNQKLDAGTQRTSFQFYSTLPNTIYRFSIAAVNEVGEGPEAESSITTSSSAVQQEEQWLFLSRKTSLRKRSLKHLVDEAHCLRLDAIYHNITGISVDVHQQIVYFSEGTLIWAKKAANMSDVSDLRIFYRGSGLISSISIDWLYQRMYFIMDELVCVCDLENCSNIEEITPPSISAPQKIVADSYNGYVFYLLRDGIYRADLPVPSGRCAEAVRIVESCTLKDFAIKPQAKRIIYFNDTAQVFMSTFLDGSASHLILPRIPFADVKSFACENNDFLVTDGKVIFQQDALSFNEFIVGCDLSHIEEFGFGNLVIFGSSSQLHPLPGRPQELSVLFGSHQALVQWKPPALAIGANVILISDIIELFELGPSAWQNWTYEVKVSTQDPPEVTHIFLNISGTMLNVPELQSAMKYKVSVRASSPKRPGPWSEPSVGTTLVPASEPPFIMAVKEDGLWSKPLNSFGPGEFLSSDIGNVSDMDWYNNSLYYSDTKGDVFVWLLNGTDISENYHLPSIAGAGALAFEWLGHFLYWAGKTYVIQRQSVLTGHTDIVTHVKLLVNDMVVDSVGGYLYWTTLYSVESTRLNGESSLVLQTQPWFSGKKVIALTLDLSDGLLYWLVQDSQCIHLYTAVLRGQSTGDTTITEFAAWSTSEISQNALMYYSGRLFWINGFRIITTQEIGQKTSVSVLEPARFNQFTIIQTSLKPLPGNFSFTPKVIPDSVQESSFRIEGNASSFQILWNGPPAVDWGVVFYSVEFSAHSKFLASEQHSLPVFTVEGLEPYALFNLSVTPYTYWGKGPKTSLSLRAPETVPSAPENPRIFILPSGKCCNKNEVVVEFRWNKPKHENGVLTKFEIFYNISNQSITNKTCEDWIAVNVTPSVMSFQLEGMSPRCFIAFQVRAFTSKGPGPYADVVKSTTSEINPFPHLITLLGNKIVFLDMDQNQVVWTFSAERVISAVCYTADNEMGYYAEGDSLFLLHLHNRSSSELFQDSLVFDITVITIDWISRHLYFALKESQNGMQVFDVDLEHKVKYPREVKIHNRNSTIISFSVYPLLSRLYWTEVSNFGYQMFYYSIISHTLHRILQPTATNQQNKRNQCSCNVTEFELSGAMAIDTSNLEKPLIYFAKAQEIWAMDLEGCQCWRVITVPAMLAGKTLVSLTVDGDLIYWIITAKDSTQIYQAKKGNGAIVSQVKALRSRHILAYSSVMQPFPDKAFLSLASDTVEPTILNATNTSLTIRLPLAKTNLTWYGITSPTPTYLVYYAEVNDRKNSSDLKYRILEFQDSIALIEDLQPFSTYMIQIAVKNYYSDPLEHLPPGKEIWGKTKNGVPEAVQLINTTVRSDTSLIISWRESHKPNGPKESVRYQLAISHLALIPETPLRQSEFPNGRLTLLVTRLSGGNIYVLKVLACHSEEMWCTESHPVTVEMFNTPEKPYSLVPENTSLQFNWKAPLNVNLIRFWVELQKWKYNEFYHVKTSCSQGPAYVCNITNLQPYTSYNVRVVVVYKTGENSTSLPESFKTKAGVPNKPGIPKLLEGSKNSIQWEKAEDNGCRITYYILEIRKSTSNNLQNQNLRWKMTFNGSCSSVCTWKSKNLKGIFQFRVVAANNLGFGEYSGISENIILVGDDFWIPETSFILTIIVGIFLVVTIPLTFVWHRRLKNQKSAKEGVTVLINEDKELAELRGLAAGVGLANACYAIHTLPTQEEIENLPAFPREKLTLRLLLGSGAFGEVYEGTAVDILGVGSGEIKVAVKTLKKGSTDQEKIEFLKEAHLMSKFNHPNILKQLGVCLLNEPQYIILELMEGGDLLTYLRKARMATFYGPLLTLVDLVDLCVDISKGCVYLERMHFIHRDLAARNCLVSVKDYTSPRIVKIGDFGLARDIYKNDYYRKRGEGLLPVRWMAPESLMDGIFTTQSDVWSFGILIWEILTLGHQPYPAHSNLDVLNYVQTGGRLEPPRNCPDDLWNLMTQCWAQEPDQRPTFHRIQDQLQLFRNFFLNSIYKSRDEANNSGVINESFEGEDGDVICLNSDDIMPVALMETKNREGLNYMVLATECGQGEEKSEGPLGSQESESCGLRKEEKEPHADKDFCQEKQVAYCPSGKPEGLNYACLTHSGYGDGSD", "UniProt Q9NR20, sequence (whole entry, looked up)": "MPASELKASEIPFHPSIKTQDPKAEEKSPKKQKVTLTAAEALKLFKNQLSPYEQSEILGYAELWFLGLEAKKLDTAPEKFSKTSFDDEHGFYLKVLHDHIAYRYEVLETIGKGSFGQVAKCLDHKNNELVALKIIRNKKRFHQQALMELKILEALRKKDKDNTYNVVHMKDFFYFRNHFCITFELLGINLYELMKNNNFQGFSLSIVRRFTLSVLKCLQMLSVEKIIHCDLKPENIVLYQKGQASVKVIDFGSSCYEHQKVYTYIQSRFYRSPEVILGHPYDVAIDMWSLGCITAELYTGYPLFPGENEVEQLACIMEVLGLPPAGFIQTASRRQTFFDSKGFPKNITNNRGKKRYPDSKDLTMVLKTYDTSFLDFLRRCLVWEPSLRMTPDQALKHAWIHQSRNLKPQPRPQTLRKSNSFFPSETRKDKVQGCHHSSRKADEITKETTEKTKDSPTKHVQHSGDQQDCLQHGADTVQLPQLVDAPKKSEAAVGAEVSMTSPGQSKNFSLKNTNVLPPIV", "UniProt P29376, sequence (whole entry, looked up)": "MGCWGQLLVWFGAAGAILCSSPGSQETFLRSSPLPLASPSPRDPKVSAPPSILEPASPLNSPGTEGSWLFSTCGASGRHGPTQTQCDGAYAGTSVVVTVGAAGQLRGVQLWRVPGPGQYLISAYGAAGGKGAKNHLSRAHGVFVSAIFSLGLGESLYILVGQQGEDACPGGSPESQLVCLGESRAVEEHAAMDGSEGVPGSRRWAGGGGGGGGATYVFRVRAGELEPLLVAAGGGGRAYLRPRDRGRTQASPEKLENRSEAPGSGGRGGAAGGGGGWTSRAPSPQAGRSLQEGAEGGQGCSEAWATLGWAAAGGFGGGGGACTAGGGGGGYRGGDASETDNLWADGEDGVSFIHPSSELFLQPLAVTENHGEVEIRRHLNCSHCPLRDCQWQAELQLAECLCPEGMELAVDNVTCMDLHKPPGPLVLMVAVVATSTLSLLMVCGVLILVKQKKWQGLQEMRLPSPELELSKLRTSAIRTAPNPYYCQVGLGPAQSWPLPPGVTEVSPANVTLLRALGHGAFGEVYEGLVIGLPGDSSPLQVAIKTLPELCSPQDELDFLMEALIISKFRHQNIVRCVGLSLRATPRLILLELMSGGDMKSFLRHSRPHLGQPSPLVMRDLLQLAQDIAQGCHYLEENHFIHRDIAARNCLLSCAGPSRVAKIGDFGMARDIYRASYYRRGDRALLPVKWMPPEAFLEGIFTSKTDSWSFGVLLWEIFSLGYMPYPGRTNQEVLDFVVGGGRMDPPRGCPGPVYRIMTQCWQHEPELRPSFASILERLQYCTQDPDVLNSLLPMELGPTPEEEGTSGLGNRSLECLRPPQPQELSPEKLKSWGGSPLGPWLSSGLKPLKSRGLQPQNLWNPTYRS", "UniProt P9WI81, sequence (whole entry, looked up)": "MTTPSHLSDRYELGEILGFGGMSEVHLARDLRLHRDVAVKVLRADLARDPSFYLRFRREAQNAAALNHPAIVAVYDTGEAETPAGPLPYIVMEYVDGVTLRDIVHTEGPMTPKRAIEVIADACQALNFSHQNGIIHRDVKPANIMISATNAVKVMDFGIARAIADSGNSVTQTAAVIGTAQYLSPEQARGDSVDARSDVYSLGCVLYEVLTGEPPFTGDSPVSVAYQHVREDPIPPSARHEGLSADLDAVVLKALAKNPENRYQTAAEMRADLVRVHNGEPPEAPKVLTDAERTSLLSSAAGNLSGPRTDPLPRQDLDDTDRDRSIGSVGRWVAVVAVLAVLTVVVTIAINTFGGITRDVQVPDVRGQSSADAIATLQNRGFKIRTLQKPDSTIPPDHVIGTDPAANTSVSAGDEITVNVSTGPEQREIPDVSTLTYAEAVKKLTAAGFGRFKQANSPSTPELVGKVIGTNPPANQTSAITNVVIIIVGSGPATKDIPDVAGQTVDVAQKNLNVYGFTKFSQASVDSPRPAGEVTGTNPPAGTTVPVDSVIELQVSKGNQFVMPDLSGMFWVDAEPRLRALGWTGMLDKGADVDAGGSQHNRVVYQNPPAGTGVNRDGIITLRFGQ", "UniProt P19784, sequence (whole entry, looked up)": "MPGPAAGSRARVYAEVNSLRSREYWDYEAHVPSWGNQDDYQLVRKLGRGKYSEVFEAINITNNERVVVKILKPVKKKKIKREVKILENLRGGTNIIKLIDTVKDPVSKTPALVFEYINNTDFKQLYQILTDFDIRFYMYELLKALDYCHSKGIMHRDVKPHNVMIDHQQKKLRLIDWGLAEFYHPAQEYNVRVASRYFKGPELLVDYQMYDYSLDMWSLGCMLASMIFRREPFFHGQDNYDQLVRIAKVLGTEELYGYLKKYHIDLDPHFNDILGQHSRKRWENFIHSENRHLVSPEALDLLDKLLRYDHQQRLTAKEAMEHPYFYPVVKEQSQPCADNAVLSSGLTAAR"}
{"data": "Series 1", "cell line": "HEK-293T", "effect on": "pseudovirus infection", "technique": "FDA-approved drug library counter-screen", "organism": "VSV pseudotyped with VSV-G", "concentration": "10 µM", "time": "16 h", "relative to": "vehicle-treated"}
{"Compound": "C[C@H](CCC(=O)O)[C@H]1CC[C@H]2[C@@H]3[C@@H](O)C[C@@H]4C[C@H](O)CC[C@]4(C)[C@H]3CC[C@]12C", "GFP-positive cells": "118%"}
{"Compound": "NC(=O)CC[C@H](N)C(=O)O", "GFP-positive cells": "142%"}
{"Compound": "CCC1=C(C)CN(C(=O)NCCc2ccc(S(=O)(=O)NC(=O)N[C@H]3CC[C@H](C)CC3)cc2)C1=O", "GFP-positive cells": "105%"}
{"Compound": "CC(C)C(=O)Nc1ccc([N+](=O)[O-])c(C(F)(F)F)c1", "GFP-positive cells": "94%"}
{"Compound": "CC[C@@H]([C@H](C)O)n1ncn(-c2ccc(N3CCN(c4ccc(OC[C@@H]5CO[C@@](Cn6cncn6)(c6ccc(F)cc6F)C5)cc4)CC3)cc2)c1=O", "GFP-positive cells": "146%"}
{"Compound": "NS(=O)(=O)c1cc2c(cc1Cl)NC(C(Cl)Cl)NS2(=O)=O (stereo not shown)", "GFP-positive cells": "91.5%"}
{"Compound": "COc1ccccc1OCCNCC(O)COc1cccc2[nH]c3ccccc3c12 (stereo not shown)", "GFP-positive cells": "115%"}
{"Compound": "Nc1ccc(S(=O)(=O)Nc2nccs2)cc1", "GFP-positive cells": "98.6%"}
{"data": "Series 2", "SMILES": "CN[C@@H]1C[C@H]2O[C@@](C)([C@@H]1OC)n1c3ccccc3c3c4c(c5c6ccccc6n2c5c31)C(=O)NC4", "concentration": "0.5 µM"}
{"target": "DYRK4 (Homo sapiens, UniProt Q9NR20)", "assay": "enzyme activity, inhibitor", "scale": "relative to: control", "remaining activity": "96.4%"}
{"target": "TNK2 (Homo sapiens, UniProt Q07912)", "assay": "kinase activity", "setting": "together with: ATP 10 µM", "scale": "relative to: untreated", "remaining activity": "2.17%"}
{"target": "ROS1 (Homo sapiens, UniProt P08922)", "assay": "enzyme activity, inhibitor", "scale": "relative to: control", "remaining activity": "0.859% and 6.53%"}
{"target": "CSNK2A2 (Homo sapiens, UniProt P19784)", "assay": "enzyme activity, inhibitor", "scale": "relative to: control", "remaining activity": "87.8%"}
{"target": "Aurora kinase A (AURKA, Homo sapiens, UniProt O14965)", "assay": "enzyme activity, inhibitor", "scale": "relative to: control", "remaining activity": "2.44%"}
{"data": "Mixed results"}
{"SMILES": "O=C1CCC(N2Cc3c(ccc4c3OCC43CCN(Cc4ccccc4)CC3)C2=O)C(=O)N1 (stereo not shown)", "test system": "male ICR mice, plasma", "setting": "intravenous, 1.0 mg/kg", "endpoint": "volume of distribution (Vz)", "result": "6.54 L/kg and 4.35 L/kg"}
{"SMILES": "CC#CC(=O)N1CCC[C@H]1c1nc(-c2ccc(C(=O)Nc3ccccn3)cc2)c2c(N)nccn12", "tested on": "LTK (Homo sapiens, UniProt P29376)", "assay": "enzyme activity, inhibitor", "setting": "1 µM", "endpoint": "inhibition", "result": "4%"}
{"SMILES": "COc1cc(-c2cn(C3CCc4ccccc4N(CC(F)(F)F)C3=O)nn2)ccc1-n1ccc(C)n1 (stereo not shown)", "tested on": "pknB (Mycobacterium tuberculosis, UniProt P9WI81)", "assay": "cell-free assay, competition with immobilised ligand", "setting": "1 µM", "endpoint": "remaining binding", "result": "78%"}
